Results from different studies.
Compare with care: the assays were run in different laboratories.
Matrix: plasma
Route: oral

Structure (SMILES) | system | setting | quantity | value
C[C@@H]1CCC[C@H](n2cnc(-c3cc(Cl)ccc3-n3cc(Cl)nn3)cc2=O)c2cc(ccn2)-c2c(cnn2C(F)F)NC1=O | human | 500 mg, single dose, fasted, healthy volunteers | AUC(0-inf) | 21300 ng·h/mL
CCCCCN1C[C@H](O)[C@@H](O)[C@H](O)[C@@H]1CO | human | 300 mg, single dose, fasted, healthy volunteers | AUC(0-t) | 10800 ng·h/mL
O=C(c1nc2n(n1)[C@H](c1ccccc1)C[C@@H]2F)C1CC1 | human | 150 mg, single dose, fasted, healthy volunteers | AUC(0-inf) | 27800 ng·h/mL
CCn1c(C(=O)c2cc(C)cc(C#N)c2)c(C(C)C)c(=O)[nH]c1=O | human | 600 mg, multiple doses, once daily, steady state, healthy volunteers | AUC | 10200 ng·h/mL
COc1cccc(-c2ccc(NC(=O)C3=C(C(=O)O)CCC3)c(F)c2)c1 | male human | 40 mg, single dose, fasted, healthy volunteers | AUC(0-inf) | 192000 ng·h/mL
CC(C)(Sc1ccncc1-c1ccc(C#N)c2ccccc12)C(=O)O | male human | 10 mg, single dose, fasted | AUC(0-inf) | 119 ng·h/mL
CS(=O)(=O)n1cc2c(n1)CN([C@H]1CO[C@H](c3cc(F)ccc3F)[C@@H](N)C1)C2 | male human | 12.5 mg, single dose, fasted, healthy volunteers | AUC(0-t) | 10.6 µM·h
CCOc1ccc(Cc2cc([C@@H]3S[C@H](CO)[C@@H](O)[C@H](O)[C@H]3O)c(OC)cc2C)cc1 | human | 3 mg, single dose, fasted, healthy volunteers | AUC(0-inf) | 1000 ng·h/mL
CS(=O)(=O)n1cc2c(n1)CN([C@H]1CO[C@H](c3cc(F)ccc3F)[C@@H](N)C1)C2 | male human | 100 mg, single dose, fasted | AUC(0-inf) | 98.9 µM·h
Nc1ccc(-c2nc([C@H]3CCc4cc(-c5cc(Cl)ccc5-n5cnnn5)cc(=O)n43)c(F)[nH]2)c(F)n1 | human | 20 mg, single dose, fasted | AUC(0-inf) | 3410 ng·h/mL
O=C(O)COC[C@H]1CC[C@H](COC(=O)N(c2ccccc2)c2ccc(Cl)cc2)CC1 | human | 20 µg, multiple doses, twice daily, steady state | AUC | 14.3 ng·h/mL
